Assay results gathered from unrelated publications.
Each numbered part is a random draw from the data of one study; scales do not carry over between parts.
Sequence of UniProt O60331 (whole entry, looked up): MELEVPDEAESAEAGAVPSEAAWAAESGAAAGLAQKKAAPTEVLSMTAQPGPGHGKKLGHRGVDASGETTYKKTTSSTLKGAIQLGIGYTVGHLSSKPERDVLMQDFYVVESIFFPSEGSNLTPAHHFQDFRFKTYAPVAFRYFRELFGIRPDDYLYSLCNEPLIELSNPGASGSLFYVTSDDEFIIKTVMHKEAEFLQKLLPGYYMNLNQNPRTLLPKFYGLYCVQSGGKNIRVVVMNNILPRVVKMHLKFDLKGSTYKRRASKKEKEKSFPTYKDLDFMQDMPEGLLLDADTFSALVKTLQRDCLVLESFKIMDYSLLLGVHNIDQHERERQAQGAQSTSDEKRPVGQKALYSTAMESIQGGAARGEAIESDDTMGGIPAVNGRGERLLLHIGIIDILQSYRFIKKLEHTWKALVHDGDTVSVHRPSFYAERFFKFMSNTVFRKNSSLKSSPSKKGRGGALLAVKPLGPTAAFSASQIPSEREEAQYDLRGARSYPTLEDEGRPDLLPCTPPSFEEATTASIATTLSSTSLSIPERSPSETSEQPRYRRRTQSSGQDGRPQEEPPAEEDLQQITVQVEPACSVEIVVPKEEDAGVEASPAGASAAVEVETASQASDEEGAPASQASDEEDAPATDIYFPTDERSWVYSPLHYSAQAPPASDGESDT
Sequence of UniProt Q5S007 (whole entry, looked up): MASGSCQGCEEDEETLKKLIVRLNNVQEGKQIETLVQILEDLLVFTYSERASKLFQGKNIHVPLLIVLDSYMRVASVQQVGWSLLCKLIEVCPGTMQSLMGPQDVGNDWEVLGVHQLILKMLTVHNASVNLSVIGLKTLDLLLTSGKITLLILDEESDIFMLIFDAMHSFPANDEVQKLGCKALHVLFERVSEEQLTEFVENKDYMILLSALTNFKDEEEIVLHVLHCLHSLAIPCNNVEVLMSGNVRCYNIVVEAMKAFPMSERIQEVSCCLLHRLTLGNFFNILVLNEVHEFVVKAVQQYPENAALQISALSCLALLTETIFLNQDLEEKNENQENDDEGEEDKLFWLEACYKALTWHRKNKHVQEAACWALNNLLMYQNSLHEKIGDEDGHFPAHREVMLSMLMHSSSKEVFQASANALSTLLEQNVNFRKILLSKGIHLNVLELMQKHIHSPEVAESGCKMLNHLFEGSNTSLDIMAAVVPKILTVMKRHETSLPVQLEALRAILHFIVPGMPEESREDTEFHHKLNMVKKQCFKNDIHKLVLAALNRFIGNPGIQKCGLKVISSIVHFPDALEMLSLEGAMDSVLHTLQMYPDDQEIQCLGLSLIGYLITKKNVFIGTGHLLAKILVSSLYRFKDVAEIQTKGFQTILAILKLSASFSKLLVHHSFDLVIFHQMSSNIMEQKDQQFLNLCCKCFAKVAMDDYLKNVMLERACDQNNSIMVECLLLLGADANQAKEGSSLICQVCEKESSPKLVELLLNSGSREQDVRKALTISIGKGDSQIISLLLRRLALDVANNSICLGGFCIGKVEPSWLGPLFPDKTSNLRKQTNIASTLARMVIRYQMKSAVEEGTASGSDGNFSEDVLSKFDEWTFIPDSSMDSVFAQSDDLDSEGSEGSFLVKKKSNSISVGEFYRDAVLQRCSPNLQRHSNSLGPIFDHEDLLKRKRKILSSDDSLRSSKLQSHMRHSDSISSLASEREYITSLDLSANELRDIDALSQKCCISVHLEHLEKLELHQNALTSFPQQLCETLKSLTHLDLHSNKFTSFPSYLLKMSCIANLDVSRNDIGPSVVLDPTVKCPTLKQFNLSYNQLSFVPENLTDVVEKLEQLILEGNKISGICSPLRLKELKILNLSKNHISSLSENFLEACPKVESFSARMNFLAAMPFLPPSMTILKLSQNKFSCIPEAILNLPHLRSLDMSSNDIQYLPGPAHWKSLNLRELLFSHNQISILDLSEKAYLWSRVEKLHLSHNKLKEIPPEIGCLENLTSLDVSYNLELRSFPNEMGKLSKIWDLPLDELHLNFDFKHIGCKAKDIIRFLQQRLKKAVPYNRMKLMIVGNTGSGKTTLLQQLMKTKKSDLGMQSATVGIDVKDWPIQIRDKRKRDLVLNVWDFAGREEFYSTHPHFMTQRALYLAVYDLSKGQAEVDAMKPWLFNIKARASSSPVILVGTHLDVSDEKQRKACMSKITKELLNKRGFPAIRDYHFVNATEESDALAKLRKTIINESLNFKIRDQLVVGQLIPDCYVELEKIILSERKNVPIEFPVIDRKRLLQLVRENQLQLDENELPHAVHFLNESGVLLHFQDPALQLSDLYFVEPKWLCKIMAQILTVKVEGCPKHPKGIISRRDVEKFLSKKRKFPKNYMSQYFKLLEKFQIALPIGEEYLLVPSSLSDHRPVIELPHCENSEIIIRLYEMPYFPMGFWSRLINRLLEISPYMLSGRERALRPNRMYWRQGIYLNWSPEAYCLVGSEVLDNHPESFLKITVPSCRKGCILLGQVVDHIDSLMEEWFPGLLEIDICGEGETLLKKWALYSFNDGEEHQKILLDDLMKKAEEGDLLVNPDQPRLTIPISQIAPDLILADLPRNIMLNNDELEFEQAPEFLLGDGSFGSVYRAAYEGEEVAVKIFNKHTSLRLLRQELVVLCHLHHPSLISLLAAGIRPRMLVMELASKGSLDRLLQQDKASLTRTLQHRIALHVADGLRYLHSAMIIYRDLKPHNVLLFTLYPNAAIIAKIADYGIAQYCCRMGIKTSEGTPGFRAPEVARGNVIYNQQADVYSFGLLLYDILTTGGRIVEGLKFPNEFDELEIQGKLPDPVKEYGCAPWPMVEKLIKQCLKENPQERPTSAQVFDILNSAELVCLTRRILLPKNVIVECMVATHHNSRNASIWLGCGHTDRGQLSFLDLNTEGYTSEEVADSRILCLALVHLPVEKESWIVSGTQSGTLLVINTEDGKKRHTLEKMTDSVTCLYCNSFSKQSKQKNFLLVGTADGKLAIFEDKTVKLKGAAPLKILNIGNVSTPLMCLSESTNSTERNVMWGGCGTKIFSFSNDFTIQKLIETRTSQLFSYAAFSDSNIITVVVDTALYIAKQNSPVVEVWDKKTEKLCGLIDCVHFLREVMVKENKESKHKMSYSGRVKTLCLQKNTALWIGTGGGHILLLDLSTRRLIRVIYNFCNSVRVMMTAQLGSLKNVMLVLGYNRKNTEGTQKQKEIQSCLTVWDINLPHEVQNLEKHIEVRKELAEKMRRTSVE
Sequence of UniProt Q96NX5 (whole entry, looked up): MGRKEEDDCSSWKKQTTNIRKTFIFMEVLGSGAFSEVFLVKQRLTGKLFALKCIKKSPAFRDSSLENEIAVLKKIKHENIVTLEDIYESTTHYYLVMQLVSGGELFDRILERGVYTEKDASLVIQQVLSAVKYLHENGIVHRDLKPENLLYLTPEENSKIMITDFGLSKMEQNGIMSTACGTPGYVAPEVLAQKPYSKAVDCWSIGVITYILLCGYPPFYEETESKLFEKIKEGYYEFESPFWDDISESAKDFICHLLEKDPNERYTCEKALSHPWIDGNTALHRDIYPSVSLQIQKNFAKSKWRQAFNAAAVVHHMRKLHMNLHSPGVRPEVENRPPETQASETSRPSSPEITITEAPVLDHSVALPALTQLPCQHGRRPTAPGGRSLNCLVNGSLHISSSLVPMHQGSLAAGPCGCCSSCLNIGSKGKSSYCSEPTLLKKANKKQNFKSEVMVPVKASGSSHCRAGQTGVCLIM
Sequence of UniProt O00444 (whole entry, looked up): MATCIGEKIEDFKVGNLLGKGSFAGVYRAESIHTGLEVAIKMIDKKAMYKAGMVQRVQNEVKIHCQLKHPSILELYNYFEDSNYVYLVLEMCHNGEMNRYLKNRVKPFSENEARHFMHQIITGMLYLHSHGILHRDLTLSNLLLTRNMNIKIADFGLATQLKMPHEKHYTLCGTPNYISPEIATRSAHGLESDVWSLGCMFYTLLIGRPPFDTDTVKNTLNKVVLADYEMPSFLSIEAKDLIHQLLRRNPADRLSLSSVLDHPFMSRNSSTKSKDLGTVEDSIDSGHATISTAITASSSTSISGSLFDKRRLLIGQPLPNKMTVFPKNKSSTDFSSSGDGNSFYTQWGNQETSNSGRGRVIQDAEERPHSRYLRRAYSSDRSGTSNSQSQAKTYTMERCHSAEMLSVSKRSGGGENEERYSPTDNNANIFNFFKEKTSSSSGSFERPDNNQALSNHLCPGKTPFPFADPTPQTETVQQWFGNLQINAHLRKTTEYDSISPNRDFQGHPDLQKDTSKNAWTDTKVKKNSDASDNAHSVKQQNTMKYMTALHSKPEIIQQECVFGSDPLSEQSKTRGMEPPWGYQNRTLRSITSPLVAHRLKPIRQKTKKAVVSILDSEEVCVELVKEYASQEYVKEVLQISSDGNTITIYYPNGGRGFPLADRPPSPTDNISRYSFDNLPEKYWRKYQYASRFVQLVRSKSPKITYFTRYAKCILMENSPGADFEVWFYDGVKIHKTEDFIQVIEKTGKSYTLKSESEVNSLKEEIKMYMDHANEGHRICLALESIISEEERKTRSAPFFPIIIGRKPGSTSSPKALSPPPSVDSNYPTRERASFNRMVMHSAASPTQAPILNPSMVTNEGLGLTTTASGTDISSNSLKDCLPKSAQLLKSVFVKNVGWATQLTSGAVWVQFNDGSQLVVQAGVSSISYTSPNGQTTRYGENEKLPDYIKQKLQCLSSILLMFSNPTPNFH

Sample 1 — technique: aptamer microarray, sandwich; form: DNA with 2'F-ANA; medium: in vitro; tested at: 200 nM; added: Cy3 exosite-II aptamer, 400 nM; reading: higher = stronger binding; oligonucleotide: GGTTGGTGTGGTTGG
Target: Prothrombin, mature alpha-thrombin (F2, Homo sapiens, UniProt P00734)
Setting: whole 15-mer aptamer, many near background
`2'F-ANA at 1 3 4 8 9 10` — result for “mean fluorescence intensity”: 74.1 a.u.
`2'F-ANA at 2 4 5 6 7 9 12 14 15` — result for “mean fluorescence intensity”: 61.9 a.u.
For `2'F-ANA at 4 6 7 9 11 12 13 15`, “mean fluorescence intensity” read 234 a.u.
Under “mean fluorescence intensity”, `2'F-ANA at 4 6 7 8 9 10 12 14` is recorded as 107 a.u.
`2'F-ANA at 2 3 5 12 15`: “mean fluorescence intensity” 220 a.u.
`2'F-ANA at 1 2 4 6 7 8 11 12 13 14 15` — result for “mean fluorescence intensity”: 59.9 a.u.
For `2'F-ANA at 2 4 7 8 11 13 14 15`, “mean fluorescence intensity” read 104 a.u.
For `2'F-ANA at 5 10 11 12 13 14 15`, “mean fluorescence intensity” read 47.4 a.u.

Sample 2 — technique: protein binding microarray; form: double-stranded DNA, one strand shown; medium: in vitro; tested at: not given; baseline: not given; reading: higher = stronger binding
Target: Histone acetyltransferase KAT6A, winged helix 2, GST fusion (KAT6A, Homo sapiens, UniProt Q92794, residues 85-181)
Setting: 8-mer, flanks averaged, mean of 2 arrays, mostly near background
Construct (chain): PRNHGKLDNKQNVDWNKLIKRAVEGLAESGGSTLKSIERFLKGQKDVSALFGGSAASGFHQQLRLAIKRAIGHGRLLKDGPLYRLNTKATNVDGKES
`ATACGGTA` gave an E-score of -0.0899.
The E-score of `ATGGCTCA` is reported as -0.171.
With `CGGTGGTA` the E-score was 0.0625.
With `CGGGGCCC` the E-score was 0.0738.
With `CTACAGAA` the E-score was -0.0437.
`CAAGAGCC` has an E-score of 0.104.
`ACCAGGCA` has an E-score of -0.0335.
`AATCTCGT` has an E-score of 0.0331.

Sample 3 — read-out: enzyme activity; mode: inhibitor; tested at: 0.5 µM; baseline: control
Target: Cyclin-dependent kinase 1, with cyclin A (CDK1, Homo sapiens, UniProt P06493)
Sequence of UniProt P06493 (whole entry, looked up): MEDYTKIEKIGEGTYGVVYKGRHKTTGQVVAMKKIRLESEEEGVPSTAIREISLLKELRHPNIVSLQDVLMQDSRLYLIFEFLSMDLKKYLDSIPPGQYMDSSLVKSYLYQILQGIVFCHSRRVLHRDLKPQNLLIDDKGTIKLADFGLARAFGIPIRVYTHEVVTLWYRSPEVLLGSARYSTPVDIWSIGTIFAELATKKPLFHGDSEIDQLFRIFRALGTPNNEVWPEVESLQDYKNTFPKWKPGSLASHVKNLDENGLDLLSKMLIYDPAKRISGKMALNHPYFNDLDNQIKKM
For CNC(=O)c1cc(Oc2ccc(NC(=O)Nc3ccc(Cl)c(C(F)(F)F)c3)cc2)ccn1, the remaining activity was 100%.
The remaining activity of CCOC(=O)c1c(C)[nH]c(/C=C2\C(=O)Nc3ccccc32)c1C is reported as 96.3%.
The remaining activity of OCC(O)CCON=C1C(c2c(O)[nH]c3ccccc23)=Nc2ccccc21 (stereo not drawn) is reported as 56.7%.
O=S(=O)(c1cccc2cnccc12)N1CCCNCC1 has a remaining activity of 98.6%.
For COc1cc2nccc(Oc3ccc(NC(=S)NC(=O)c4ccccc4C)cc3)c2cc1OC, the remaining activity was 91.6%.
O=c1c2ccccc2[nH]c(=S)n1CCN1CCC(=C(c2ccc(F)cc2)c2ccc(F)cc2)CC1 has a remaining activity of 96.8%.
Nc1[nH]nc2nc3ccccc3nc12 gave a remaining activity of 95.3%.
With O=C(Nc1cccc(Nc2cc(Nc3cccc(C(F)(F)F)c3)ncn2)c1)C1CC1 the remaining activity was 97.9%.
Oc1ccc(-c2nc(-c3ccncc3)c(-c3ccc(F)cc3)[nH]2)cc1 gave a remaining activity of 90.9%.
CN(C)c1ccc(C=C2C(=O)Nc3ccccc32)cc1 gave a remaining activity of 96.9%.
For C#Cc1cccc(Nc2ncnc3cc(OCCOC)c(OCCOC)cc23)c1, the remaining activity was 99.6%.
O=C1NC(=O)C(c2cn(CCCn3ccnc3)c3ccccc23)=C1Nc1ccccc1 gave a remaining activity of 88.9%.
For Cc1ccc(NC(=O)c2ccc(CN3CCN(C)CC3)cc2)cc1Nc1nc(-c2cccnc2)cs1, the remaining activity was 98%.
O=C1NC(=O)C(c2cn(CCCO)c3ncccc23)=C1c1cnccn1 has a remaining activity of 91.8%.
The remaining activity of Cn1c2ccccc2c2c3c(c4c5ccccc5n(CCC#N)c4c21)CNC3=O is reported as 55.5%.
Nc1ncnc2n[nH]c(Nc3ccc(F)cc3)c12 has a remaining activity of 93%.
For COc1ccc(OC)c2c(=S)c3ccccc3[nH]c12, the remaining activity was 96.2%.
The remaining activity of Nc1ccc2ncnc(NCCc3ccc(Oc4ccccc4)cc3)c2c1 is reported as 98.9%.
Cc1ccc(Nc2nccc(N(C)c3ccc4c(C)n(C)nc4c3)n2)cc1S(N)(=O)=O has a remaining activity of 96.2%.
Cc1cccc(-c2[nH]c(C(C)(C)C)nc2-c2ccc3c(c2)OCO3)n1 has a remaining activity of 96.7%.
COc1ccc(C(=O)Nc2sc3c(c2C(N)=O)CCCC3)cc1OC gave a remaining activity of 105%.
For COc1cc2ncnc(Nc3ccc(F)c(Cl)c3)c2cc1OCCCN1CCOCC1, the remaining activity was 101%.

Sample 4 — technique: competition with immobilised ligand; tested at: 1 µM
Compound: CC(=O)C1=C(C)N(c2cccc(C(F)(F)F)c2)C(=O)N[C@@H]1c1ccc(C#N)nc1
For Tyrosine-protein kinase ABL1, phosphorylated (ABL1, Homo sapiens, UniProt P00519, H396P); cell-free assay: remaining binding read 100%.
For PRKAA1 (Homo sapiens, UniProt Q13131); cell-free assay: remaining binding read 85.4%.
The remaining binding was 100% (ALK (Homo sapiens, UniProt Q9UM73, C1156Y); cell-free assay).
The remaining binding was 90.8% (STK39 (Homo sapiens, UniProt Q9UEW8); cell-free assay).
FLT3 (Homo sapiens, UniProt P36888, K663Q); cell-free assay — remaining binding: 100%.
For IKBKB (Homo sapiens, UniProt O14920); cell-free assay: remaining binding read 100%.
For FLT3 (Homo sapiens, UniProt P36888, ITD); cell-free assay: remaining binding read 61.2%.
For Cyclin-dependent kinase 4, with cyclin D3 (CDK4, Homo sapiens, UniProt P11802); cell-free assay: remaining binding read 79.4%.
The remaining binding was 99.7% (TNNI3K (Homo sapiens, UniProt Q59H18); cell-free assay).
LRRK2 (Homo sapiens, UniProt Q5S007); cell-free assay — remaining binding: 80.7%.
It gave 100% for remaining binding (HIPK3 (Homo sapiens, UniProt Q9H422); cell-free assay).
It gave 100% for remaining binding (Tyrosine-protein kinase ABL1, non-phosphorylated (ABL1, Homo sapiens, UniProt P00519, F317I); binding).
EGFR (Homo sapiens, UniProt P00533, A750P/del747-749); cell-free assay — remaining binding: 80%.
For PLK4 (Homo sapiens, UniProt O00444); cell-free assay: remaining binding read 82.7%.
The remaining binding was 100% (PIP5K1C (Homo sapiens, UniProt O60331); cell-free assay).
The remaining binding was 80.3% (EGFR (Homo sapiens, UniProt P00533, del747-752/P753S); cell-free assay).
It gave 83.8% for remaining binding (DAPK3 (Homo sapiens, UniProt O43293); cell-free assay).
It gave 100% for remaining binding (CAMK1G (Homo sapiens, UniProt Q96NX5); cell-free assay).
The remaining binding was 100% (Tyrosine-protein kinase ABL1, phosphorylated (ABL1, Homo sapiens, UniProt P00519, Y253F); cell-free assay).

Excerpt of the above (sample 4):
The remaining binding was 90.8% (STK39 (Homo sapiens, UniProt Q9UEW8); cell-free assay).
FLT3 (Homo sapiens, UniProt P36888, K663Q); cell-free assay — remaining binding: 100%.
For IKBKB (Homo sapiens, UniProt O14920); cell-free assay: remaining binding read 100%.
For FLT3 (Homo sapiens, UniProt P36888, ITD); cell-free assay: remaining binding read 61.2%.
For Cyclin-dependent kinase 4, with cyclin D3 (CDK4, Homo sapiens, UniProt P11802); cell-free assay: remaining binding read 79.4%.
The remaining binding was 99.7% (TNNI3K (Homo sapiens, UniProt Q59H18); cell-free assay).
LRRK2 (Homo sapiens, UniProt Q5S007); cell-free assay — remaining binding: 80.7%.
